{"data": "Published values pooled from the literature", "note": "Parts stem from different laboratories: compare values within a part only. Values joined by “and” are separate records of one study, mostly repeats; a detail may differ.", "chain of UniProt Q99640 (whole entry, looked up)": "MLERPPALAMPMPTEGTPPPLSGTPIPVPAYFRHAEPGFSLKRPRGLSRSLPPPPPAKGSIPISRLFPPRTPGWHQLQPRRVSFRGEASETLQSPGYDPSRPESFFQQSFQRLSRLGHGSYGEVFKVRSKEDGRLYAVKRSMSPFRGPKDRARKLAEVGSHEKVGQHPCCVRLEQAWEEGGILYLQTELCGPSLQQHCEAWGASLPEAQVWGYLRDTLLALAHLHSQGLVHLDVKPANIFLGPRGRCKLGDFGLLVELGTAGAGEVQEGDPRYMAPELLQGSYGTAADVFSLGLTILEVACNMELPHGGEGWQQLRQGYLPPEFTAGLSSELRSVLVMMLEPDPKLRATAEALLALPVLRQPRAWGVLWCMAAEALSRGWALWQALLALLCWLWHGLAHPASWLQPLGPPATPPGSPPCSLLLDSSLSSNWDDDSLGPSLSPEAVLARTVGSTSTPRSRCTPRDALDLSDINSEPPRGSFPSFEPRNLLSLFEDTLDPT", "chain of UniProt Q99808 (whole entry, looked up)": "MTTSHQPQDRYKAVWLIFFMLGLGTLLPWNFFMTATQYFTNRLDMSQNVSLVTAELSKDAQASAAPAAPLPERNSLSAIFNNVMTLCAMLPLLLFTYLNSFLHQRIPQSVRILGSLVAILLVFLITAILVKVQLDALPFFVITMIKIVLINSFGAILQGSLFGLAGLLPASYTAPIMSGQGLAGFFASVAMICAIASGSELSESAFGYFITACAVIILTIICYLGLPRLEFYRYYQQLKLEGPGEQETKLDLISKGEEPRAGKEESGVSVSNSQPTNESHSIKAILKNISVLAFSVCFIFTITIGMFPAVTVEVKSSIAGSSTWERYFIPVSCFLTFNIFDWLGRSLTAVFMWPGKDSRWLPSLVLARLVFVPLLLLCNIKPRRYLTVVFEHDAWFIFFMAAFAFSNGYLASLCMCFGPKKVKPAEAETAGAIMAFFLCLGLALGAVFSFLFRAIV"}
{"data": "Study 1", "SMILES": "C[C@@H]1CN(c2ccc(-c3cc(C(=O)NCCOCCOCCOCCOCCNC(=O)Cn4cc(-c5[nH]cc(C(=O)N[C@@H](CC(N)=O)c6ccc(F)c(Cl)c6)c5-c5ccc(Cl)cc5F)cn4)ccc3F)cc2NC(=O)c2c[nH]c(=O)cc2C(F)(F)F)C[C@H](C)N1C", "observed": "thermal unfolding", "technique": "differential scanning fluorimetry", "tested at": "5.5 µM", "direction": "higher = more unfolded", "DCAF1": "DDB1- and CUL4-associated factor 1 (DCAF1, Homo sapiens, UniProt Q9Y4B6)", "WDR5": "WD repeat-containing protein 5 (WDR5, Homo sapiens, UniProt P61964)", "chain of UniProt Q9Y4B6 (whole entry, looked up)": "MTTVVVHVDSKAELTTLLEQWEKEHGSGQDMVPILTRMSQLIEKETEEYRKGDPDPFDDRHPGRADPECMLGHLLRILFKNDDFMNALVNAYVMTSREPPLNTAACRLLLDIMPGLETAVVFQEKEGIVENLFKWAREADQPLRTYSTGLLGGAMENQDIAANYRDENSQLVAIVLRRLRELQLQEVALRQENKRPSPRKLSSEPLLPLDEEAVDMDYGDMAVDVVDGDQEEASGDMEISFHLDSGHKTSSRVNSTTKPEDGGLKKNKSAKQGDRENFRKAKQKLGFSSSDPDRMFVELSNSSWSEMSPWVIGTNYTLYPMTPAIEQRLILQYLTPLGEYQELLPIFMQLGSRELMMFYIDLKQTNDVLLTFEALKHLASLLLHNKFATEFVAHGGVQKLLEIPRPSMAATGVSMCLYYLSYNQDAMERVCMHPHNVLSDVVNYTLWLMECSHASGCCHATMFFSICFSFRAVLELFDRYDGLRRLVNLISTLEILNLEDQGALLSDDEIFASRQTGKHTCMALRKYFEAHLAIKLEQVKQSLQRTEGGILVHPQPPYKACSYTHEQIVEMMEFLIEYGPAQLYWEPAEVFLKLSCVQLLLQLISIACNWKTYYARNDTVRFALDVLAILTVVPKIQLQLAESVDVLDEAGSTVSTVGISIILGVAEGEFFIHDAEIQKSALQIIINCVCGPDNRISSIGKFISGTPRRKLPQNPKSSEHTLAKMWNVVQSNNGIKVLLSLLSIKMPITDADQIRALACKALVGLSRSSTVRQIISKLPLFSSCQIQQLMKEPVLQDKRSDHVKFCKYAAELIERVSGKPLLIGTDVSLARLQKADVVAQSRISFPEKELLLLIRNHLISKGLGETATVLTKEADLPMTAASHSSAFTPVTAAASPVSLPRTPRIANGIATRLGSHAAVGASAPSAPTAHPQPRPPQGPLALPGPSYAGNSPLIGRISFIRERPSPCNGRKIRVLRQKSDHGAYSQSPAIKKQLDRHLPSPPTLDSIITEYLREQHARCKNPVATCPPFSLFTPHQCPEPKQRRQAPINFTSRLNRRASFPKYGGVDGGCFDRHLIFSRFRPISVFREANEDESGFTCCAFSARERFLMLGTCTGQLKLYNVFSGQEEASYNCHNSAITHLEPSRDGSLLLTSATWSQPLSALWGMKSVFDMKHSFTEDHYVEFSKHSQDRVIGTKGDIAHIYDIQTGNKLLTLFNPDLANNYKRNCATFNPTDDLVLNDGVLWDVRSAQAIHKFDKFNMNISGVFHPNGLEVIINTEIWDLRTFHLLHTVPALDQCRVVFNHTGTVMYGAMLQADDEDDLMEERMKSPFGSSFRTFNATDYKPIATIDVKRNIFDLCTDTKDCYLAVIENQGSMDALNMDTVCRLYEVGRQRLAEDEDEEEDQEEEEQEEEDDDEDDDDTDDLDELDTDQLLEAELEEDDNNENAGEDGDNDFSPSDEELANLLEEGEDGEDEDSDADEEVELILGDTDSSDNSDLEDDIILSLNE"}
{"target": "DCAF1", "temperature": "78.01 °C", "SYPRO Orange fluorescence [a.u.]": 45900}
{"target": "DCAF1", "temperature": "73.41 °C", "SYPRO Orange fluorescence [a.u.]": 51000}
{"target": "WDR5", "temperature": "75.21 °C", "SYPRO Orange fluorescence [a.u.]": 11500}
{"target": "WDR5", "temperature": "94.61 °C", "SYPRO Orange fluorescence [a.u.]": 38400}
{"target": "WDR5", "temperature": "82.01 °C", "SYPRO Orange fluorescence [a.u.]": 29900}
{"target": "DCAF1", "temperature": "59.01 °C", "SYPRO Orange fluorescence [a.u.]": 33100}
{"target": "WDR5", "temperature": "53.81 °C", "SYPRO Orange fluorescence [a.u.]": 14200}
{"target": "DCAF1", "temperature": "66.61 °C", "SYPRO Orange fluorescence [a.u.]": 56800}
{"data": "Further values, each from its own experiment"}
{"SMILES": "Cc1ccc(O)c(C)c1-c1cnc2[nH]c(-c3cnc(N4CCC(CN5CCN(c6cc7c(cc6F)c(N6CCC(=O)NC6=O)nn7C)CC5)CC4)nc3)cc2c1C#N", "test system": "female CD-1 mouse, plasma", "conditions": "oral, 60 mg/kg", "measurement": "bioavailability", "result": "33.4%"}
{"SMILES": "Cc1ncsc1-c1ccc(C(CO)NC(=O)C2CC(O)CN2C(=O)C(NC(=O)c2ccc(COc3c(-c4c(C)c(F)cc5[nH]ncc45)c(C4CC4)cc4c(N5CC6CC5CN6)nc(OC5CCOCC5)nc34)cc2)C(C)C)cc1 (stereo not shown)", "target or system": "AsPC-1", "assay": "in-cell ELISA", "conditions": "1 nM, individual replicates", "measurement": "phospho-ERK1/2 level", "result": "98.3% and 96.6% and 87.6% and 94.9%"}
{"SMILES": "Cc1ccc(O)c(C)c1-c1cnc2[nH]c(-c3cnc(N4CCC5(CC4)CC(N4CCN(c6ccc7c(c6)C(=O)N(C6CCC(=O)NC6=O)C7=O)CC4)CO5)nc3)cc2c1C#N (mixture of isomers)", "target or system": "PKMYT1 (Homo sapiens, UniProt Q99640)", "assay": "binding, HTRF", "conditions": "37.04 nM", "measurement": "inhibition", "result": "95.1% and 94.4%"}
{"SMILES": "Cc1ncsc1-c1ccc(C(CO)NC(=O)C2CC(O)CN2C(=O)C(C(C)C)n2cc(-c3ccc(COc4c(-c5c(C)c(F)cc6[nH]ncc56)c(C5CC5)cc5c(N6CC7CC6CN7)nc(OC6CCOCC6)nc45)cc3)nn2)cc1 (stereo not shown)", "test system": "mouse, PK-59 xenograft", "conditions": "1 mg/kg, day 14", "measurement": "tumour volume", "result": "828 mm3 and 913 mm3 and 821 mm3 and 892 mm3 and 991 mm3"}
{"SMILES": "Cc1ccc(O)c(C)c1-c1cnc2[nH]c(-c3cnc(N4CCC5(CC4)CC(N4CCN(c6ccc(N[C@H]7CCC(=O)NC7=O)cc6F)CC4)CO5)nc3)cc2c1C#N (single isomer, unassigned)", "target or system": "KLE", "assay": "cell proliferation", "conditions": "1.524 nM", "measurement": "inhibition", "result": "-1.07% and -1.1% and 0.5%"}
{"SMILES": "Cc1ncsc1-c1ccc(C2(NC(=O)C3CC(O)CN3C(=O)C(NC(=O)c3ccc(COc4c(-c5c(C)c(F)cc6[nH]ncc56)c(C5CC5)cc5c(N6CC7CC6CN7)nc(OC6CCOCC6)nc45)cc3)C(C)(C)C)CC2)cc1 (stereo not shown)", "target or system": "AsPC-1", "assay": "in-cell ELISA", "conditions": "100 nM, individual replicates", "measurement": "phospho-ERK1/2 level", "result": "83.7% and 81.3% and 88.5% and 80% and 98.8% and 98.2%"}
{"SMILES": "Cc1ccc(O)c(C)c1-c1cnc2[nH]c(-c3cnc(N4CCC(CN5CCN(c6ccc(NC7CCC(=O)NC7=O)cc6F)CC5)CC4)nc3)cc2c1C#N (stereo not shown)", "test system": "cynomolgus monkey, male, plasma", "conditions": "oral, 10 mg/kg", "measurement": "half-life", "result": "12.1 h"}
{"SMILES": "COc1cc(C(=O)OCCCN2CCCN(CCCOC(=O)c3cc(OC)c(OC)c(OCc4ccc([N+](=O)[O-])cc4)c3)CC2)cc(OC)c1OC", "target or system": "SLC29A1 (Homo sapiens, UniProt Q99808)", "assay": "inhibitor", "test system": "human cells", "measurement": "IC50", "result": "127 nM"}
{"note": "Some of these lines once more (study 1):"}
{"target": "WDR5", "temperature": "53.81 °C", "SYPRO Orange fluorescence [a.u.]": 14200}
